# Measurements gathered from unrelated publications.
# Protocols differ between the studies behind these lines.
# Target: Serine/threonine-protein kinase PAK 6 (PAK6, Homo sapiens, UniProt Q9NQU5)
# UniProt Q9NQU5, sequence (whole entry, looked up): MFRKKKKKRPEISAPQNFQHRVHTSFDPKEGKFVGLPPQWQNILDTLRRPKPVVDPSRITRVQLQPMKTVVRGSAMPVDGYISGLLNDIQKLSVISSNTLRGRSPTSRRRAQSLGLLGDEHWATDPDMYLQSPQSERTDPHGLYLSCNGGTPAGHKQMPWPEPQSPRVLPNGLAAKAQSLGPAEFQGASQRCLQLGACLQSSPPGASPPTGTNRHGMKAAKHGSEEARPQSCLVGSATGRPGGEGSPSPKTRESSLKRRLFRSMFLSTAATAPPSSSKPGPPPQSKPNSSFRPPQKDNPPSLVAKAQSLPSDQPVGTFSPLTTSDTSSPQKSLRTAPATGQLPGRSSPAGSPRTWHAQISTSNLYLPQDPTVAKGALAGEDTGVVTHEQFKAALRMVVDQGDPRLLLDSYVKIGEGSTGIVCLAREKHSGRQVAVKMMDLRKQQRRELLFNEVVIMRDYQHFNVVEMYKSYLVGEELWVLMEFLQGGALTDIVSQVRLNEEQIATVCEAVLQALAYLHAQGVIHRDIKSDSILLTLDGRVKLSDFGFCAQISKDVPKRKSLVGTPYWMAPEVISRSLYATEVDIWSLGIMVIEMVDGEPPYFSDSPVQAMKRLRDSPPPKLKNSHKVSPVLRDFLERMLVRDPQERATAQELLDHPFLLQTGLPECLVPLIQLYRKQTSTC
SMILES,assay,setting,scale,quantity,value
COCCNc1nc2ccc(C#CC3(O)CCCCC3)cc2n1-c1ccnc(N)n1,"enzyme activity, inhibitor, Z'-LYTE",1 µM,relative to: no-inhibitor control,remaining kinase activity,49.9%
Cc1cc(Nc2cc(N3CCN(C)CC3)nc(Sc3ccc(NC(=O)C4CC4)cc3)n2)[nH]n1,"kinase activity, KinaseProfiler","0.03 µM, species human",relative to: control,remaining activity,107%
C=CC(=O)N1CCC(COCC(=O)N2CCN(c3nc(-c4cnc(N)nc4C(F)F)nc(N4CCOC[C@@H]4C)n3)CC2)CC1,KINOMEscan,1 µM,,remaining binding,100%
CN1CC(Oc2cnc(C#N)cc2-c2ccn3nc(NC(=O)C4CC4)cc3c2)C1,"inhibitor, KinaseProfiler panel",1 µM,,inhibition,-19%
O=C1NC(=O)/C(=C/c2ccc(-c3ccc(F)cc3O)o2)S1,enzyme activity,10 µM,,remaining activity,71%
C=CC(=O)N1CCC(C(=O)NCC(=O)N2CCN(c3nc(-c4cnc(N)nc4C(F)F)nc(N4CCOCC4)n3)CC2)CC1,KINOMEscan,1 µM,,remaining binding,100%
CNc1ncc2c(/C=C/C(=O)N3CCC(OC)CC3)nn(Cc3cccc(C(F)(F)F)c3)c2n1,"kinase activity, inhibitor",1 µM,relative to: untreated control,remaining activity,95%
CN(C)CC#Cc1ccc2[nH]c3c(c2c1)-c1nc(N)ncc1CCC3,"kinase activity, inhibitor, radiometric","1 µM, with: ATP at Km",,remaining activity,77%
COc1cc(F)ccc1-c1ncnc(Nc2cccc(C[S@](C)(=N)=O)c2)n1,kinase activity,"10 µM, with: 10 µM ATP",,remaining activity,100%

# Some of these lines once more:
SMILES,assay,setting,scale,quantity,value
COc1cc(F)ccc1-c1ncnc(Nc2cccc(C[S@](C)(=N)=O)c2)n1,kinase activity,"10 µM, with: 10 µM ATP",,remaining activity,100%
